Published values of several laboratories.
A part holds a random share of what one study measured.

Series 1
Target: Centromere-binding protein 1, full length, His-tagged (CBF1, Saccharomyces cerevisiae, UniProt P17106, residues 1-351)
UniProt P17106, sequence (whole entry, looked up): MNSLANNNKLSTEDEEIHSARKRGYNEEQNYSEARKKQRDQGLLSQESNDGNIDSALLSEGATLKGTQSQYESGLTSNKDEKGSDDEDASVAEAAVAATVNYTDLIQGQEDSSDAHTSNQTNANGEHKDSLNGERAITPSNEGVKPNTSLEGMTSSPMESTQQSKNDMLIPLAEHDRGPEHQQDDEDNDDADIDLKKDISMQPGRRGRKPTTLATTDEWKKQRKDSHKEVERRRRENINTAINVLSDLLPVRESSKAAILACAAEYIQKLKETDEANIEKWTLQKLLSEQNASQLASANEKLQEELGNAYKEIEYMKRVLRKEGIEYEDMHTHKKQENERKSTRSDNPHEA
Method: competition protein-binding microarray
Molecule type: double-stranded DNA, one strand shown
Medium: in vitro
Tested at: 2 µM
Notes: whole 60-bp probe, lowest competitor level
With: Pho4 competitor, 0.05 µM
Reading: higher = stronger binding
Shared flanks, not repeated: … GTCTTGATTCGCTTGACGCTGCTG
Strand	fluorescence intensity [a.u.]
CATACCCAACCTTTTCACGTGACGTAAGATATTTGT	5630
AAAGCGGTAATTTGCGTAGTGGGTGCAGATATCTAT	84.4
CAACCAACTGACGAAACCGTGATGGTCATTAGAACT	70.6
GAAATGGAGCATTCACACGTGAAGATTTTTAGGGGA	646
CAGCGGCATTTCGCTCGCGTGCCAGATCTCACAATC	81.9
CAGATGAACTTCTTGAACGTGGACGCCGTATGCCAT	61.2
GCCCAGGAGTTCTGGCACGTTGTTTTGAGGCTAAGT	141
TGCGCAACAACTTGTTTAGTGGGTGTATGTCTAGAA	76.2
AAATTACTAAGTTTTCACGTGGGATACCCCGTATGA	729
AAAGCGGTAATTTGGGTTGTGGGTGCAGATATCTAT	76.6
CATACCCAACCTTTTCACGTGAATTAAGATATTTGT	1040
TGCGCAACAACTTGTCACGGGACTTTATGTCTAGAA	1460

Series 2
Target: Histone acetyltransferase KAT6A, winged helix 1, GST fusion (KAT6A, Homo sapiens, UniProt Q92794, residues 1-85)
Method: protein binding microarray
Molecule type: double-stranded DNA, one strand shown
Medium: in vitro
Tested at: not given
Notes: 8-mer, flanks averaged, mean of 2 arrays, mostly near background
Relative to: not given
Reading: higher = stronger binding
Construct (chain): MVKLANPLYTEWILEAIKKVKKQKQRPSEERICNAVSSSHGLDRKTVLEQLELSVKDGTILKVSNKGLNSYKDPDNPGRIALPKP
Strand	E-score
GTGGTCAA	-0.251
CTCTGCAA	-0.175
GATCTGAC	-0.0126
AGGGGCTA	-0.125
CGAAAACG	0.11
CTATTGAA	-0.0339
AGGCCTAC	-0.172
GGGAATAA	0.0637
AAGACAAA	-0.0907
AGAGGGCG	0.259
ATGCCCCG	0.0903
ATAAGCAG	-0.178
AAACCGTG	-0.0492
CAAATAAA	-0.212
ACAGTTAT	-0.0717
AAACCCTG	-0.183
GTAAGATA	-0.02
ACGTGTTA	-0.0212
ATAGTTGC	-0.111
TCTGAGCA	-0.247

Series 3
Target: RING finger protein unkempt homolog, zinc fingers 1-6, GST-SBP tag (UNK, Homo sapiens, UniProt Q9C0B0, residues 30-357)
UniProt Q9C0B0, sequence (30-357, looked up): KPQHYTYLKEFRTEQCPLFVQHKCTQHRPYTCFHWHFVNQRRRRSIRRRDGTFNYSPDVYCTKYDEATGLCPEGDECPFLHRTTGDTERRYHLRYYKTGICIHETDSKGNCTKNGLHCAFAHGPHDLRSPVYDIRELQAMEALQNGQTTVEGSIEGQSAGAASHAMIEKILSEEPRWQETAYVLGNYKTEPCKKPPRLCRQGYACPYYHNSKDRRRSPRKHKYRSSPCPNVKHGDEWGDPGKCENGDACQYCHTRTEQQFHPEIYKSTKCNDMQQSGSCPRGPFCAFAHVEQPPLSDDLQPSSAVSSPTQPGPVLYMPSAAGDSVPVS
Method: RNA Bind-n-Seq
Molecule type: RNA
Medium: in vitro
Tested at: not given
Notes: RNA with constant flanks, human and mouse sites, ends assumed
Relative to: input RNA pool
Reading: higher = stronger binding
Shared flanks, not repeated: GGGAGUUCUACAGUCCGACGAUC … CAACAGAGGAUUGAGCAUCA
Strand	bound/input enrichment [ratio]
UCAGGAACUCAGACAAAUAUGAAUGUAAAUGAAGUCAUUAGCAAUAGAGCAAUUGAAAUGUUAGGAGGUGAACUUGGCAGCAAGAUACCUGUGCAUCCCAACGAUCAUGUUAAUAAAAGC	1.36
GAAGCCUGCGUAACUUUCUCCCUUGAUCCGGGAGUCUUUCCACUGGAUUCACAAUGACAUCCUUUCAAGAAGUCCCAUUGCAGACUUCCAACUUUGCCCAUGUCAUCUUUCAAAAUGUGG	0.112
UUUUGGAAACAGUUCAGGCUUUGGGGUGAGCCUGUUAAUCUGCGUGAACAACACGAUGCUUUAGAAUUUUUUAAUUCAUUGGUGGAUAGUUUAGAUGAAGCUUUAAAAGCUUUAGGACAU	2.69
ACCAUAAUUCCUCUUAAGCAUAUGACUAAUUUAUUUCUUAUUCAUUUCCAUUUCAGCAUUUAGUUCUUUAUUUUUAUUAUGGGGCUAGUUCAGAACUGGAGUGGCUGUAUAGCAGUGUAG	7.59
AGUCAGAAUUUAUAGCUUUCACUAUGUCCAAGACUAGGACUGGGUUAUAAAGAUUUUCUUUUGUGAAGGAAAAUAAAAGAAAAUUUGCCACUACUGCAUUUACUUUACUAUUGUAAACUU	0.393
UUCGGGAAAAUAACCAGUUAAACCAGCUACUCAAGGCUGCUCACCAUACGGCUCUAACAGAUUAGGGGCUAAAACGAUUACUGACUUUCCUUGAGUAGUUUUUAUCUGAAAUCAAUUAAA	0.497

Series 4
Target: Fragile X messenger ribonucleoprotein 1, C-terminal low-complexity region (Fmr1, Mus musculus, UniProt P35922)
Method: RNA Bind-n-Seq
Molecule type: RNA
Medium: in vitro
Tested at: 200 nM
Notes: whole 134-nt RNA, ends assumed
With: 150 mM KCl
Relative to: input library
Reading: higher = stronger binding
Shared flanks, not repeated: GGGAGUUCUACAGUCCGACGAUC … UGGAAUUCUCGGGUGUCAAGG
Strand	log2 enrichment
GCAGGAAGUAAAAACAAAUGGAAAUGCUUAAAAUAGUGGCAGGGGUGGGGGUUGCUAAGGAAAGGGUGGGAUGGGAGUGGGUAAAGAGUU	0.482
CCUCAAGUCCUGUGCUACACAUCGUAUGUACCGAAUCGGGGCGGCGGGCGGGAAAGUAUUAUGUUACGCCGUUCGGAUCUGCACUUCCAG	0.937
UCCUGUGCUACACAUCGUAUGUACCGAAUCGGAAAAAGGGGAAAAAGGGGAAAAAGGGGAAAGUAUUAUGUUACGCCGUUCGGAUCUGCA	0.113
CUCAAGUCCUGUGCUACACAUCGUAUGUACCGAAUCGGAAAAAAAGGUGGAGGAAAGUAUUAUGUUACGCCGUUCGGAUCUGCACUUCCA	-0.143
UCCUGUGCUACACAUCGUAUGUACCGAAUCGGUUUUUUGGGUUUUUUGGGUUUUUUGGGAAAGUAUUAUGUUACGCCGUUCGGAUCUGCA	-0.0328
CCUCAAGUCCUGUGCUACACAUCGUAUGUACCGAAUCGGUUGGUUGGGGUUGGAAAGUAUUAUGUUACGCCGUUCGGAUCUGCACUUCCA	0.02
CUCAAGUCCUGUGCUACACAUCGUAUGUACCGAAUCGGAGGUUUGGAAAAAGGAAAGUAUUAUGUUACGCCGUUCGGAUCUGCACUUCCA	-0.482

Series 5
Target: UBE2D1 UBC core domain (UniProt P51668)
Method: yeast two-hybrid
Medium: yeast
Notes: mostly zero background
Relative to: not given
Reading: higher = stronger interaction
B1: ZMYND11 RING domain (UniProt Q15326); chain DEIDWETENHDWYCFECHLPGEVLICDLCFRVYHSKCLSDEFRLRDSSSPWQCPVCRSIKKKNTNKQEM
B2: RNF6 RING domain (UniProt Q9Y252); chain NSIDSELGKICSVCISDYVTGNKLRQLPCMHEFHIHCIDRWLSENCTCPICRQPVLGSNIAN
B3: MKRN3 RING domain (UniProt Q13064); chain FAVQRGMDKVCGICMEVVYEKANPNDRRFGILSNCNHSFCIRCIRRWRSARQFENRIVKSCPQCRVTSELVIPSE
B4: TRIM11 RING domain (UniProt Q96F44); chain LSTNLQEEATCAICLDYFTDPVMTDCGHNFCRECIRRCWGQPEGPYACPECRELSPQRNLRP
B5: RNF182 RING domain (UniProt Q8N6D2); chain AESQASDELECKICYNRYNLKQRKPKVLECCHRVCAKCLYKIIDFGDSPQGVIVCPFCRFETCLPDDEV
B6: HLTF RING domain (UniProt Q14527); chain LILSSGSDEECAICLDSLTVPVITHCAHVFCKPCICQVIQNEQPHAKCPLCRNDIHEDNLLE
B7: RNF186 RING domain (UniProt Q9NXI6); chain HSGSTECDLECLVCREPYSCPRLPKLLACQHAFCAICLKLLLCVQDNTWSITCPLCRKVTAVPGGLI
Construct (chain): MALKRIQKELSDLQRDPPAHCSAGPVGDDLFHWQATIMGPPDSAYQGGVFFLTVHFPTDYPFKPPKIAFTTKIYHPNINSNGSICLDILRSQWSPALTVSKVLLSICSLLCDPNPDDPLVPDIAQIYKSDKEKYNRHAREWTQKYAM
Sequence	lacZ reporter activity
B1 (ZMYND11 RING domain)	0
B2 (RNF6 RING domain)	0
B3 (MKRN3 RING domain)	0
B4 (TRIM11 RING domain)	0
B5 (RNF182 RING domain)	0
B6 (HLTF RING domain)	0
B7 (RNF186 RING domain)	0

Series 6
Target: Interferon regulatory factor 5, full length, phosphomimetic (IRF5, Homo sapiens, UniProt Q13568-2, residues 1-514, S451D/S453D/S456D/S462D)
Method: protein-binding microarray
Molecule type: double-stranded DNA, one strand shown
Medium: in vitro
Tested at: 940 nM top
Notes: 60-bp whole probe
With: salmon DNA 0.4 mg/ml
Relative to: random background probes
Reading: higher = stronger binding
Shared flanks, not repeated: GCCTAGCAC … GTCTTGATTCGCTTGACGCTGCTG
Strand	fitted relative affinity
GACGGTTTCCTTCTCCTAACGTGCTAG	1.77 z-score
GACGGCCTGCTTCTCCTGACGTGCTAG	-0.291 z-score
TAAGGTTTCGGGTATCGGTTAGTGCTA	8.64 z-score
GGCGGACTGGACTATCGGGACGTGCTA	-0.306 z-score
TCATTTTTCTGATCCATACTGTGCTAG	1.08 z-score
TTAGGACTGGGTATCGTTTAGTGCTAG	1.1 z-score
GACGAACTGAGTATCGATACGTGCTAG	5 z-score
ATAGGACTGGGTATCGGTTAGTGCTAG	3.37 z-score
GACGGACTGGGTCTCGGGAGGTGCTAG	-0.06 z-score
TCAAATTTGGAAACCGAACTGTGCTAG	-0.517 z-score
GACGATTTCGGGACTTGAGACGTGCTA	0.104 z-score
TTTGGACTGGGTATCGGTTAGTGCTAG	3.18 z-score
TGAGATATCAGTTTCGATTAGTGCTAG	7.78 z-score
GAGGAACTGGGGTATCGAGACGTGCTA	0.812 z-score
TCATCTTTCACTGCTGCACTGTGCTAG	1.58 z-score
TTAGGTATCGGTTGCGGTTAGTGCTAG	10 z-score
TTAGATTTCATTCTCGATTAGTGCTAG	3.58 z-score
TCAGGACTGGACTATCGGTTAGTGCTA	-0.128 z-score
GTTATCCTATATCTGAACCGGTGCTAG	0.115 z-score
TTAGGACTGAACACTGGGTTAGTGCTA	-0.374 z-score
TTAGGTCTCGGTCTGGGTTAGTGCTAG	4.4 z-score
TTAGGACTGGGTTCCGGTTAGTGCTAG	0.346 z-score
GACGGTTTCGGGTTGCGGGACGTGCTA	8.62 z-score

Repeated from above (series 2):
Strand	E-score
ACAGTTAT	-0.0717
AAACCCTG	-0.183
GTAAGATA	-0.02
ACGTGTTA	-0.0212
ATAGTTGC	-0.111
